{"data": "Assay results of several laboratories", "CHRM1": "Muscarinic acetylcholine receptor M1 (CHRM1, Homo sapiens, UniProt P11229)", "note": "Lines come from different studies, so protocols differ. ± gives the spread as reported.", "chain of UniProt P11229 (whole entry, looked up)": "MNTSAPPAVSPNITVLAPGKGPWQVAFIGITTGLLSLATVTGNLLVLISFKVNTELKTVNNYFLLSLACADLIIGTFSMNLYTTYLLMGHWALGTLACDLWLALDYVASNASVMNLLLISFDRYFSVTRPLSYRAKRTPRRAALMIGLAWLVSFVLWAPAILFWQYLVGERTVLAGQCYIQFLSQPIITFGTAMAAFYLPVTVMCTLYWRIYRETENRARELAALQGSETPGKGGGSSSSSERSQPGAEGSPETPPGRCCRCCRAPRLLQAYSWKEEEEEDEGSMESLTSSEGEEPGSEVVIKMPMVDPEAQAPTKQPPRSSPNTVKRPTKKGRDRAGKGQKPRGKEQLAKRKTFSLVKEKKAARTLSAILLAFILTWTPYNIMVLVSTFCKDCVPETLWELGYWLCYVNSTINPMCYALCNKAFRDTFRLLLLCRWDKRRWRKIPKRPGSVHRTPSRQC"}
{"Compound": "COc1cc2c(cc1OC)CN(CCc1ccc(NC(=O)c3cc(OC)c(OC)cc3NC(=O)c3cnc4ccccc4c3)cc1)CC2", "test system": "Wistar Unilever rat, plasma", "conditions": "intravenous, 15 mg/kg, 3 h", "measurement": "plasma concentration", "result": "1400 ± 296 ng/mL"}
{"Compound": "O=C(OC(C(F)(F)F)C(F)(F)F)N1CCN(Cc2ccc(C(F)(F)F)cc2N2CCCC2)CC1", "test system": "wild-type mouse, plasma", "conditions": "oral in chow, 350 mg/kg chow, 7 days, P25", "measurement": "plasma concentration", "result": "394 ± 49 ng/mL"}
{"Compound": "O=C(c1ccc(-n2nc(C(F)(F)F)c3c2CCCC3)cc1)N1CCCC1", "test system": "rat", "conditions": "dose not given, 30 min", "measurement": "plasma concentration", "result": "7 to 25 ng/mL"}
{"Compound": "CCn1nc(C2CC2)cc1Nc1nc(C(=O)NCCCCCc2cccc3c2CN(C2CCC(=O)NC2=O)C3=O)nc2[nH]c3cc(-c4c(C)noc4C)c(OC)cc3c12 (centres unmarked)", "test system": "female SCID C.B-17 mouse, plasma", "conditions": "intravenous, 5 mg/kg single, 3 h", "measurement": "plasma concentration", "result": "58 ng/mL"}
{"Compound": "OC[C@H]1O[C@@H](c2ccc(Cl)c(Cc3ccc(O[C@H]4CCOC4)cc3)c2)[C@H](O)[C@@H](O)[C@@H]1O", "test": "HPLC-MS/MS", "test system": "healthy Chinese volunteers, fasting", "conditions": "oral, 10 mg tablet, 2.75 h", "measurement": "plasma concentration", "result": "130 ± 18.5 ng/mL"}
{"Compound": "CCN(CC)C(=O)c1ccc(COc2ccccc2-c2cc(=O)n(C3CCCCC3O)cn2)cc1 (centres unmarked)", "tested on": "CHRM1", "test": "positive allosteric modulator, IP1 accumulation", "test system": "CHO-M1 cells", "conditions": "10 µM, 60 min, 37 °C, added: ACh", "scale": "reference: ACh alone, higher = stronger potentiation", "measurement": "ΔpEC50 of ACh", "result": "0.74 ± 0.13 log units"}
{"Compound": "CC(C)(O/N=C(\\C(=O)N[C@H]1CN2CC(C(=O)NCCN3C(=O)c4cc(O)c(O)cc4C3=O)=C(C(=O)O)N2C1=O)c1nc(N)sc1Cl)C(=O)O", "test system": "CD-1 mouse, plasma", "conditions": "intravenous or subcutaneous, 50 mg/kg, 6 h", "measurement": "plasma concentration", "result": "> 1000 ng/mL"}
{"Compound": "Cn1cc(-c2ccc(COc3ccccc3-c3cc(=O)n(C4CCCCC4O)cn3)cn2)cn1 (centres unmarked)", "tested on": "CHRM1", "test": "allosteric agonist, IP1 accumulation", "test system": "CHO-M1 cells", "conditions": "10 µM, unit not given", "scale": "reference: maximum ACh response", "measurement": "change in baseline activity", "result": "78.7 ± 3.4"}
{"Compound": "N=C(N)c1ccc(CNC(=O)[C@@H]2CCN2C(=O)[C@H](NCC(=O)O)C2CCCCC2)cc1", "test system": "Wistar rats male, plasma", "conditions": "intravenous, 0.3 mg/kg, 15 min, 10 min after TF", "measurement": "plasma concentration", "result": "525 ng/mL"}
{"Compound": "CNC(=O)c1ccccc1Sc1ccc2c(/C=C/c3ccccn3)n[nH]c2c1", "test system": "New Zealand White rabbit, plasma", "conditions": "suprachoroidal, 1 mg/eye, 6 h", "measurement": "plasma concentration", "result": "0.155 ng/mL"}
{"Compound": "Cc1ccc([C@H]2C[C@@H]2COc2cc(NCc3nnc(C)s3)nc(C)n2)nc1", "test system": "rat (MK-801-induced hyperlocomotion), plasma", "conditions": "oral, 0.25 mg/kg, 2.5 h", "measurement": "plasma concentration", "result": "17 nM"}
{"Compound": "C[C@H](Oc1ccc(-c2nc(-c3ccc4[nH]cnc4c3)no2)cc1C(F)(F)F)C(F)(F)F", "test system": "cynomolgus monkey, aneurysm model, plasma", "conditions": "0.1 mg/kg once daily, 2 h post-dose, 3 months dosing", "measurement": "plasma concentration", "result": "12 ± 2 nM"}
{"Compound": "COc1cc2c(cc1OC)CN(CCc1ccc(NC(=O)c3cc(OC)c(OC)cc3NC(=O)c3cnc4ccccc4c3)cc1)CC2", "test system": "patients, plasma", "conditions": "intravenous, 150 mg, 72 h post-dose, cycle 1, no vinorelbine", "measurement": "plasma concentration", "result": "43 ng/mL"}
{"Compound": "CS(=O)(=O)n1cc2c(n1)CN([C@H]1CO[C@H](c3cc(F)ccc3F)[C@@H](N)C1)C2", "test system": "healthy Japanese men, fasted, plasma", "conditions": "oral, 50 mg single dose, 168 h", "measurement": "plasma concentration", "result": "23.6 nM"}
